# Assay results from different studies.
# Numbered parts are unrelated; each lists some results of a single study.

# Block 1 — technique: RNA Bind-n-Seq; molecule type: RNA; matrix: in vitro; tested at: not given; baseline: input RNA pool; direction: higher = stronger binding
# Target: RING finger protein unkempt homolog, zinc fingers 1-6, GST-SBP tag (UNK, Homo sapiens, UniProt Q9C0B0, residues 30-357)
# UniProt Q9C0B0, sequence (30-357, looked up): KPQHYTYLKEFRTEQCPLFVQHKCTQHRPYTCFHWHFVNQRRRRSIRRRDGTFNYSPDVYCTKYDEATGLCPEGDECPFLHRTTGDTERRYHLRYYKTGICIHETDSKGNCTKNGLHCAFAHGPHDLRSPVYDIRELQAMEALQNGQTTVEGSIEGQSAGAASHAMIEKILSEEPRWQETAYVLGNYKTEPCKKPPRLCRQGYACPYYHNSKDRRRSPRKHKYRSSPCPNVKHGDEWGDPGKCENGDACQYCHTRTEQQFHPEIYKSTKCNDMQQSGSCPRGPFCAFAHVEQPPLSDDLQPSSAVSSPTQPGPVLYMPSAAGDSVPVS
# Notes: RNA with constant flanks, human-mouse chimeric sites, ends assumed
Strand,bound/input enrichment [ratio]
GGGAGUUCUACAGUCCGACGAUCGGCCUGGACCUUCCUGGGGCUAGUACAAUAGCGGCAGGUGGAGGCUCGAGAGGAAAGUUUGUUAGUGGAGGCAGUGGUAGAGGCCGUCAUGUACGGUCCUUUACUCGAUAGAUGUGUUCUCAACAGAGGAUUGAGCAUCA,0.377
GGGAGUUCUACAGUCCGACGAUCAGAAUCUUGGGACUGUUUUACUUAAUUGGUCAUUGAUAUCUCAACAAACAUGGAGAUAAGAUUAGAAAUCUUGACAUCAACAAGUAUUAAGCAGAAAAAACCAUGGCCACGUGUCUCCUGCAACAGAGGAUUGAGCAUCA,0.13
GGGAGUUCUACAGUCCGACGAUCACCAUUUUCGCGGUUCAGGCUUUGUGUGUAGUUCACUUACGGUAUUAAAUUAUUAUUCUGCUUAGCUUAAAGUAAGGAUAAUUGCAUUUAAAGAGGUGAUCACUGAAUACUCUGAAACUUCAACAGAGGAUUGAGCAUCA,0.306
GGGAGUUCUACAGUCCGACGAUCACUCAGAGAUCCACCUCCCAAAGUGCUGGGAGUAAAGGUGUGGCCACCACACCUAACUUGAUGGAUAUUUUAUAAAGUUAAUAUGAAUCUUCCUGUUCGUCCAGGGAAGAAAGAUUUGUUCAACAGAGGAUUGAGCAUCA,0.464
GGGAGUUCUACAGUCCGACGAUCGAUCCACAGUGGUCUGAGGAACAGCUGAUUGCUGCAAAAUUCUGUUUUGCUGGCCUUGUUAUAGGGCAGACUGAAGUGGACAUCAUGAGUCAUGCCACACAAGCUAUUUUUGAAAUUCUGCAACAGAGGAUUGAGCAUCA,0.282
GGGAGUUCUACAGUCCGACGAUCAAGGUGAUAACCAUGUUUGUCCAACGACAGGUAUUUUCGGAGAGCAAAGAUGAGAUUGCGUUAGUCCUCUAUGGCACAGAUGGCACUGAUAAUGCCCUUGCUGGCAAGGACCAGUAUCAGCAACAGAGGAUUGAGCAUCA,0.128
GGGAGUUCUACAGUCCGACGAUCCACACACUCUUCUGCGGGACCCUCAUCCUGCAGGCCCGGGCCUAUGUGGGACCGCACGUGCUAGCAGUGGUGACCCGCACAGGGUUCUGCACGGCAAAAGGGGGCCUGGUGAGCUCCAUCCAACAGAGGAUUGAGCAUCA,0.101
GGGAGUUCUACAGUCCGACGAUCUUCAAAGAAAAGGGCAGUUCAUAAAUAACUUGGGAGACUCUGGGGGAGGGAAAUUCUGUUCUUUUGUUUAAUUUUCCCCCAAAUGAAGCCAAAGUGUGUGUUGAAGAACUGAGAAAAAAUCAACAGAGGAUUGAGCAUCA,0.161

# Block 2 — technique: protein binding microarray; molecule type: double-stranded DNA, one strand shown; matrix: in vitro; tested at: not given; baseline: not given; direction: higher = stronger binding
# Target: Histone acetyltransferase KAT6A, winged helix 2, GST fusion (KAT6A, Homo sapiens, UniProt Q92794, residues 85-181)
# Notes: 8-mer, flanks averaged, mean of 2 arrays, mostly near background
# Residues (chain): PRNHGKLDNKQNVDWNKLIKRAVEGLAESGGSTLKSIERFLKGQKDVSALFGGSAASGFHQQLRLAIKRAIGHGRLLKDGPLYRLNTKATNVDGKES
Strand,E-score
CACAACCC,-0.019
ATGAGCAC,0.116
AATGATTG,-0.0976
CATGATAG,0.115
GCGGACTA,-0.0228
ATGGAAGC,0.0777
AACAGTAG,0.0428
AGCGACAG,-0.00336
AGTGACTA,-0.0269
TAGGTGAA,-0.0717
CCAGGGTA,-0.0242
CTCGACAG,0.00683
AGTACGTC,-0.12
AACGGCCC,0.0565
ACAACCTC,-0.233
AATCGCTG,-0.0635
AATGGGGA,-0.15

# Block 3 — technique: protein-binding microarray; molecule type: double-stranded DNA, one strand shown; matrix: in vitro; tested at: 2540 nM top; notes: 60-bp whole probe; together with: salmon DNA 0.4 mg/ml; baseline: random background probes; direction: higher = stronger binding; constant ends, left off below: GCCTAGCAC … GTCTTGATTCGCTTGACGCTGCTG
# Target: Interferon regulatory factor 3, full length, phosphomimetic (IRF3, Homo sapiens, UniProt Q14653, residues 1-427, S386D/S396D/S398D/S402D/T404D/S405D)
# Target sequence (chain): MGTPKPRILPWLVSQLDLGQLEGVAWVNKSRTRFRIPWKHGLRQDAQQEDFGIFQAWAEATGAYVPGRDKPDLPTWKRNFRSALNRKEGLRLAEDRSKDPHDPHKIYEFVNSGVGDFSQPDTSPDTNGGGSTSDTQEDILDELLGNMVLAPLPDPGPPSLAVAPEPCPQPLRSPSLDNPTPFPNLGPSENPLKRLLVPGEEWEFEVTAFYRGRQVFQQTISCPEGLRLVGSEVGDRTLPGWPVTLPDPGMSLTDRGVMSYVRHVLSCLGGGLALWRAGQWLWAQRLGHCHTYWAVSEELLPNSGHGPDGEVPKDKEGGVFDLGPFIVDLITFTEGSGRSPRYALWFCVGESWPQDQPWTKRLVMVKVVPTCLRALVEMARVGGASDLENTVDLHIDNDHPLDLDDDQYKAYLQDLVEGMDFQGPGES
Strand,fitted relative affinity [z-score]
TTAGGTATCGGTATCCGTTAGTGCTAG,5.06
TTAGGTATTGACTATCGGTTAGTGCTA,-0.291
GACGGTTTCTTTTTCCTGACGTGCTAG,4.94
GACGAACTGGGGTTTCAAGACGTGCTA,-0.388
TTAGGACTGGACTTTCGCTTAGTGCTA,0.0217
TATTATATATTTATGTATACGTGCTAG,0.747
GGAGTTTTCAGTCCTGGGATGTGCTAG,1.05
TTCATTTTCCAAATGCCCTCGTGCTAG,4.16
TTAGATTTTAGTCTCGATTAGTGCTAG,0.656
TCAGACATCTTCATCAAACTGTGCTAG,-0.0691
TCATTTTTTTTAATTGAACTGTGCTAG,1.03
TTAGGTCTCCTTGTCCTTTAGTGCTAG,0.993
TTAGGACTGGGTATCGCTTAGTGCTAG,-0.396
TTAGGACTGGACTTTCAGTTAGTGCTA,-0.384
TTAGGACTAGGACTGGGTTAGTGCTAG,-0.578

# Block 4 — technique: RNA Bind-n-Seq; molecule type: RNA; matrix: in vitro; tested at: 1 µM; notes: whole 134-nt RNA, ends assumed; together with: 150 mM KCl; baseline: input library; direction: higher = stronger binding
# Target: Ras GTPase-activating protein-binding protein 1, C-terminal RGG region (G3BP1, Homo sapiens, UniProt Q13283)
# UniProt Q13283, sequence (whole entry, looked up): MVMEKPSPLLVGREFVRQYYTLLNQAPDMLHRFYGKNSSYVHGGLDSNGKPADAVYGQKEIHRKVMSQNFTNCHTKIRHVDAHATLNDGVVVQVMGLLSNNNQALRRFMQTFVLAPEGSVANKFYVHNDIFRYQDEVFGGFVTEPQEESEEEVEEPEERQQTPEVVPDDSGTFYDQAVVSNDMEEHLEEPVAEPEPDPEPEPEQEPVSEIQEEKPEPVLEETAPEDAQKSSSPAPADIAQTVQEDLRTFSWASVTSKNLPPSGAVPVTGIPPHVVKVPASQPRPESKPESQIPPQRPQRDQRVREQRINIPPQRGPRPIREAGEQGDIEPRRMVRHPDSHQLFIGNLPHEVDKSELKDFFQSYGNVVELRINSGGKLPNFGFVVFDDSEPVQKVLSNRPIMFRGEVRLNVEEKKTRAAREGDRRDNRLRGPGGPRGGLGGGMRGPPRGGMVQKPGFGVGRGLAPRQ
Strand,log2 enrichment
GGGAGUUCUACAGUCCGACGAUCGUCCUGUGCUACACAUCGUAUGUACCGAAUCGGUUUUUGGAAAAAAAGGUUUUUUUGGAAAGUAUUAUGUUACGCCGUUCGGAUCUGCACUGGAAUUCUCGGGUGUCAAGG,-1.8
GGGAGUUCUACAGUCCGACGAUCACCAUGCAGGUGGGCAUCUUUGGGAAGUGGGGCAAGGGGGGGAUAGGGAGGGGGGUAACACUUUGGGAACAGGAGGUCCCAGGUCGUUUCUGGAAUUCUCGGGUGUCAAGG,2.18
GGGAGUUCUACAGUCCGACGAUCGCAGGAAGUAAAAACAAAUGGAAAUGCUUCGGAUAGUGGCAGGGGUGGGGUUUGCUAAGGAAAGGGUGGGAUGGGAGUGGGUAAAGAGUUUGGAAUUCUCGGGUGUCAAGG,1.75
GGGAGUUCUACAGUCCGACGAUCAAGUCCUGUGCUACACAUCGUAUGUACCGAAUCAAACCCAAACCCCCAAACCCAAAAAAGUAUUAUGUUACGCCGUUCGGAUCUGCACUUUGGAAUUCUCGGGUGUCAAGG,-0.955
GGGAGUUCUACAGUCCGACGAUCAGUCCUGUGCUACACAUCGUAUGUACCGAAUCGGGAAAAAGGGUUUUUGGGAAAGGGAAAGUAUUAUGUUACGCCGUUCGGAUCUGCACUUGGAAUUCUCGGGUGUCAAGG,-0.111
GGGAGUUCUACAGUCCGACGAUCAGUCCUGUGCUACACAUCGUAUGUACCGAAUCGGUUUUGGGUUUUGGGGUUUUGGGGAAAGUAUUAUGUUACGCCGUUCGGAUCUGCACUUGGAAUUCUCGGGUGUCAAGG,-0.864
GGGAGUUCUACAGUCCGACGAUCACCAUGCAGGUGGGCAUCUUUAAAAAGUGGGGCAAGGGGGGGAUAGGGAGGGGGGUAACACUUUGGGAACAGGUGGUCCCAGGUCGUUUCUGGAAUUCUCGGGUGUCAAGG,-0.979
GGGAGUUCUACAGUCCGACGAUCGUCCUGUGCUACACAUCGUAUGUACCGAAUCGGGGUUUUUGGGUUUUUGGUUUUUGGGAAAGUAUUAUGUUACGCCGUUCGGAUCUGCACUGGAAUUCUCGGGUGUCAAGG,-1.29
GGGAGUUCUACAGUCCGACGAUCCUCAAGUCCUGUGCUACACAUCGUAUGUACCGAAUCGGUGGAGGAAAAAAAGGAAAGUAUUAUGUUACGCCGUUCGGAUCUGCACUUCCAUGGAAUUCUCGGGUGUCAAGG,-1.33
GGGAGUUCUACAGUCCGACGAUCUCCUCAAGUCCUGUGCUACACAUCGUAUGUACCGAAUCGGGUGGGUGGUGGGAAAGUAUUAUGUUACGCCGUUCGGAUCUGCACUUCCAGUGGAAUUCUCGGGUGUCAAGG,1.27

# Excerpt of the above (block 3):
Strand,fitted relative affinity [z-score]
TTAGGTCTCCTTGTCCTTTAGTGCTAG,0.993
TTAGGACTGGGTATCGCTTAGTGCTAG,-0.396
TTAGGACTGGACTTTCAGTTAGTGCTA,-0.384
TTAGGACTAGGACTGGGTTAGTGCTAG,-0.578
